Assay results pooled from the literature.
Every numbered part comes from another study and shows a few of its results, in no order. Positions count from the first letter of the parent shown.

Set 1
Target: BATF, bZIP domain (human)
Method: DHFR protein complementation
Medium: yeast
Notes: single substitutions, most at no-binding floor
Relative to: wild-type JUN-FOS pair
Direction: higher = stronger binding
Starting sequence: JUN, bZIP domain (human); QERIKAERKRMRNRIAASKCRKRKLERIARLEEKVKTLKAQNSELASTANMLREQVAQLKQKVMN; partner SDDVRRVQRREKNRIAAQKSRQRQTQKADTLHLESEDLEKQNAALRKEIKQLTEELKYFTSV
With `A29W` the binding fitness was -0.216 natural log.
`E44F` gave a binding fitness of -0.146 natural log.
The binding fitness of `Q58F` is reported as -0.13 natural log.
`L52H` gave a binding fitness of -1.08 natural log.
The binding fitness of `N42I` is reported as -1.1 natural log.
`M51Y` has a binding fitness of 0.0499 natural log.
`M51G` has a binding fitness of 0.0075 natural log.
The binding fitness of `L31D` is reported as -0.107 natural log.
With `Q55R` the binding fitness was 0.0411 natural log.
The binding fitness of `Q41A` is reported as -0.0776 natural log.
With `Q55H` the binding fitness was -0.0239 natural log.
`A29K` has a binding fitness of -0.143 natural log.
`K39E` has a binding fitness of -0.255 natural log.
`T37F` gave a binding fitness of 0.0583 natural log.

Set 2
Target: CCND2, cyclin fold, Cln2 fusion (human)
Method: yeast growth competition, sequencing
Medium: yeast
Notes: weak parent motif
Relative to: not given
Direction: higher = stronger binding
Starting sequence: E2F3 docking peptide (human); PPAKRRLELGESG
`PPAKRRAELGESG [L7A]` — result for “normalised enrichment score”: 0.259.
`PPAKKRLELGESG [R5K]`: “normalised enrichment score” -0.57.
`PAAKRRLELGESG [P2A]` — result for “normalised enrichment score”: 0.075.
For `PPAKRRLALGESG [E8A]`, “normalised enrichment score” read 0.11.
`PPAKRRLELAESG [G10A]` — result for “normalised enrichment score”: 0.377.
Under “normalised enrichment score”, `PPAKRALELGESG [R6A]` is recorded as 0.305.
Under “normalised enrichment score”, `PPAKARLELGESG [R5A]` is recorded as -0.219.

Set 3
Target: ABI1, truncated, D143A, DHFR fusion (Arabidopsis thaliana)
Method: DHFR PCA, deep sequencing
Medium: yeast
Notes: methotrexate growth selection, single substitutions
Added: (+)-ABA 200 µM
Relative to: wild-type fitted maximum
Direction: higher = stronger binding
Starting sequence: PYL1, truncated, DHFR fusion (Arabidopsis thaliana); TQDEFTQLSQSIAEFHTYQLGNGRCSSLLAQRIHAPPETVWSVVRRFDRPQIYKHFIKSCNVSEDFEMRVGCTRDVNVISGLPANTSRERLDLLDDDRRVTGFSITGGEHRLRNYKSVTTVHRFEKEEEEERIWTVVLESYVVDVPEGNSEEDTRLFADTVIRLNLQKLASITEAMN
Under “relative binding score”, `Q31N` is recorded as 58%.
`E4P`: “relative binding score” 92.7%.
For `R113C`, “relative binding score” read 97.8%.
For `F47P`, “relative binding score” read -4.38%.
Under “relative binding score”, `T39A` is recorded as 98.3%.
`R32E`: “relative binding score” 99%.
`V76M` — result for “relative binding score”: 73.3%.
For `V76P`, “relative binding score” read -4.54%.
For `E129G`, “relative binding score” read 112%.
`S11Q`: “relative binding score” 104%.
`K126S` — result for “relative binding score”: 111%.
For `V78I`, “relative binding score” read 109%.
`P83G`: “relative binding score” 73%.
`I105E` — result for “relative binding score”: -2.93%.
`N61W`: “relative binding score” 97.8%.
`H122P` — result for “relative binding score”: -0.0919%.
`K54I`: “relative binding score” 7.5%.
Under “relative binding score”, `E125P` is recorded as 106%.
For `N114Y`, “relative binding score” read 41.3%.

Other studies, line by line
`PhoQ, residues 284 288 289 292 302 303 SSCCRF` gave a fold induction of 8.04 (PhoP, residues 12 14 15 18 19 NQAHL (Escherichia coli, UniProt P23836); Sort-seq, refers to: YFP reporter; E. coli; PhoQ-PhoP variant library, added: 10 µM Mg2+; relative to: high Mg2+ state, higher = stronger signaling).

Some of these lines once more (set 1):
`M51G` has a binding fitness of 0.0075 natural log.
The binding fitness of `L31D` is reported as -0.107 natural log.
With `Q55R` the binding fitness was 0.0411 natural log.
The binding fitness of `Q41A` is reported as -0.0776 natural log.
With `Q55H` the binding fitness was -0.0239 natural log.
`A29K` has a binding fitness of -0.143 natural log.
